# Measured values from different studies.
# Chains of the proteins cited; added tags and fusions are not shown. Residues count along the entry.
# UniProt P46934, whole entry, looked up: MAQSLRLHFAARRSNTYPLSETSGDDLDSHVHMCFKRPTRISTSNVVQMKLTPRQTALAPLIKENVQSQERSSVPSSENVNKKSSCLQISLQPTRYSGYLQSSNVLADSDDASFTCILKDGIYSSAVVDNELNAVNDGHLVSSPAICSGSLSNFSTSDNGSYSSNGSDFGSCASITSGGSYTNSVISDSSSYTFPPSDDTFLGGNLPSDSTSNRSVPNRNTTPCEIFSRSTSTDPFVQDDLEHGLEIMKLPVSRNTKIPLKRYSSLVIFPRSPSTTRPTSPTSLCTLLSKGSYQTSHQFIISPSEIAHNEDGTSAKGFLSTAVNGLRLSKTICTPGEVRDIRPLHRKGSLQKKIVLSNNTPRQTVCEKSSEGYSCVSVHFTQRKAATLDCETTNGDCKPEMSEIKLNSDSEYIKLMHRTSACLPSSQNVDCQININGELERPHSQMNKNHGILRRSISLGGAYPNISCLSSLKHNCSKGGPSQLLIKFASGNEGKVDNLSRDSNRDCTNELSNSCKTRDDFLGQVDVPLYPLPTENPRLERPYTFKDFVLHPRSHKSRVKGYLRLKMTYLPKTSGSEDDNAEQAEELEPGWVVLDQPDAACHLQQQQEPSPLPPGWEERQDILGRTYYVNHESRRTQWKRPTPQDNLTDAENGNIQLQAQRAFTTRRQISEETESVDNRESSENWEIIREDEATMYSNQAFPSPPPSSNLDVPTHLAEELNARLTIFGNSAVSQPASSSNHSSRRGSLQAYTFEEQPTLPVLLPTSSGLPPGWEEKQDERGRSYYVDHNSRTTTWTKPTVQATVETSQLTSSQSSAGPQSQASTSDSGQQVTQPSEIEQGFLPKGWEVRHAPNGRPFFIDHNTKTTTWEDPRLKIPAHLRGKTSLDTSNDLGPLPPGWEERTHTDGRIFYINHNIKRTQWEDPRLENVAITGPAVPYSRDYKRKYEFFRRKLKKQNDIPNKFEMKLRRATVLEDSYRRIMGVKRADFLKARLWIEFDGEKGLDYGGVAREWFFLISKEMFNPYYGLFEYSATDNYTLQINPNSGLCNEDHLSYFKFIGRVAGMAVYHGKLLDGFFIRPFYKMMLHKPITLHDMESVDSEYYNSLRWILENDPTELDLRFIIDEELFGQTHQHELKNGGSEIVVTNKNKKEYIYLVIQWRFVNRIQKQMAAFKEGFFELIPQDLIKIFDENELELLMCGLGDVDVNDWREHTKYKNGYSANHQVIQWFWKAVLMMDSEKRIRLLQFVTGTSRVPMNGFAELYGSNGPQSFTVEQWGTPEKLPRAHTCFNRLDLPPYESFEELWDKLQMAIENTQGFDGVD
# UniProt Q14833, 33-912 limits assumed: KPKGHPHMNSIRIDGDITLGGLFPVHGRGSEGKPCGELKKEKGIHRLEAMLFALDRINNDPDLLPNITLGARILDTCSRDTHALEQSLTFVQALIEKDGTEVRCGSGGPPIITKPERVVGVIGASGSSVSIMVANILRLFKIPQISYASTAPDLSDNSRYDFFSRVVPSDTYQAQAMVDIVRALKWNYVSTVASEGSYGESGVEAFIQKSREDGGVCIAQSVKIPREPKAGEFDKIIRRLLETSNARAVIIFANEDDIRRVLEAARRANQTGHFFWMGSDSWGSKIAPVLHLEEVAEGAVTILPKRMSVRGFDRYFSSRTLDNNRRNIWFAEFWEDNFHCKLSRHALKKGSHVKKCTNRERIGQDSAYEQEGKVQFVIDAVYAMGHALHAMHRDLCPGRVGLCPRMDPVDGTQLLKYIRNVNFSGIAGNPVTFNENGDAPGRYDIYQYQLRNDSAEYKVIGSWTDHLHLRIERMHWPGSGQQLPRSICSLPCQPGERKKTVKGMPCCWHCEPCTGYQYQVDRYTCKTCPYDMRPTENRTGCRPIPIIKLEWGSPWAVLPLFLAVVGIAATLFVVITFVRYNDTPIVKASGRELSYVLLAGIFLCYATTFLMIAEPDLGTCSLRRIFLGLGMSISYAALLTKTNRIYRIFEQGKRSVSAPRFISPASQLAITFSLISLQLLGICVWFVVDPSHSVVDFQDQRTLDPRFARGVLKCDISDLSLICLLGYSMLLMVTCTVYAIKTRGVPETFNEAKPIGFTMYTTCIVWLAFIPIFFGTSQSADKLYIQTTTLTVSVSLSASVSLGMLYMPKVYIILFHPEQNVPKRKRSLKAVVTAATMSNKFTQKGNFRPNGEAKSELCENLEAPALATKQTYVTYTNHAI
# UniProt P31421, 19-872 limits assumed: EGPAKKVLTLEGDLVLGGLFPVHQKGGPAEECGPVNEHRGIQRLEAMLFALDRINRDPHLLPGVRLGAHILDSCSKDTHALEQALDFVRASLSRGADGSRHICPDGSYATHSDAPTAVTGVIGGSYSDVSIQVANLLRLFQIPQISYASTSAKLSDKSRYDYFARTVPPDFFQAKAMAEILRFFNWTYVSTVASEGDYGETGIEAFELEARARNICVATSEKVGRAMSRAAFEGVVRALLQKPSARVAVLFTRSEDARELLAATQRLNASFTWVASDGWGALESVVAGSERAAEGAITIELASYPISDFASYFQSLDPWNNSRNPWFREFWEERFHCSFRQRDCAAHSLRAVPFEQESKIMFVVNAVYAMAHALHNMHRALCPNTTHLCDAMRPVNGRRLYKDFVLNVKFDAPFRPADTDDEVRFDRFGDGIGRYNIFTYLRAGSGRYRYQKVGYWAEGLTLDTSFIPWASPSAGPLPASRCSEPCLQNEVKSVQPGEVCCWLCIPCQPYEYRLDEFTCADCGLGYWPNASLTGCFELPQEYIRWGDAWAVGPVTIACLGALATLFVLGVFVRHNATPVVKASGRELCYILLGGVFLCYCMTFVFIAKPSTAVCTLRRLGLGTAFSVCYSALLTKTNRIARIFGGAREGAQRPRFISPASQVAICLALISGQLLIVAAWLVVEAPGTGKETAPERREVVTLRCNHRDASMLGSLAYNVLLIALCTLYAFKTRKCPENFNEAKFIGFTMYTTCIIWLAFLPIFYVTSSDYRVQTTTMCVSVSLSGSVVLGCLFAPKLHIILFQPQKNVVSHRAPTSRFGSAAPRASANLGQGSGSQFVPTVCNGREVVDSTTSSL
# UniProt Q3UFF7, whole entry: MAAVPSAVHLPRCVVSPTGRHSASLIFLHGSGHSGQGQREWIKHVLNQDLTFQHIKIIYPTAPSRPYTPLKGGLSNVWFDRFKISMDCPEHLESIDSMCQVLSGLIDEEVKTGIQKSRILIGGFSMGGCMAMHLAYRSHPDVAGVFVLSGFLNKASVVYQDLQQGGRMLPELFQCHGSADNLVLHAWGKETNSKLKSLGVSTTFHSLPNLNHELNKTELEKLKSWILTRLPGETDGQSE
# UniProt P31424, 21-1203 limits assumed: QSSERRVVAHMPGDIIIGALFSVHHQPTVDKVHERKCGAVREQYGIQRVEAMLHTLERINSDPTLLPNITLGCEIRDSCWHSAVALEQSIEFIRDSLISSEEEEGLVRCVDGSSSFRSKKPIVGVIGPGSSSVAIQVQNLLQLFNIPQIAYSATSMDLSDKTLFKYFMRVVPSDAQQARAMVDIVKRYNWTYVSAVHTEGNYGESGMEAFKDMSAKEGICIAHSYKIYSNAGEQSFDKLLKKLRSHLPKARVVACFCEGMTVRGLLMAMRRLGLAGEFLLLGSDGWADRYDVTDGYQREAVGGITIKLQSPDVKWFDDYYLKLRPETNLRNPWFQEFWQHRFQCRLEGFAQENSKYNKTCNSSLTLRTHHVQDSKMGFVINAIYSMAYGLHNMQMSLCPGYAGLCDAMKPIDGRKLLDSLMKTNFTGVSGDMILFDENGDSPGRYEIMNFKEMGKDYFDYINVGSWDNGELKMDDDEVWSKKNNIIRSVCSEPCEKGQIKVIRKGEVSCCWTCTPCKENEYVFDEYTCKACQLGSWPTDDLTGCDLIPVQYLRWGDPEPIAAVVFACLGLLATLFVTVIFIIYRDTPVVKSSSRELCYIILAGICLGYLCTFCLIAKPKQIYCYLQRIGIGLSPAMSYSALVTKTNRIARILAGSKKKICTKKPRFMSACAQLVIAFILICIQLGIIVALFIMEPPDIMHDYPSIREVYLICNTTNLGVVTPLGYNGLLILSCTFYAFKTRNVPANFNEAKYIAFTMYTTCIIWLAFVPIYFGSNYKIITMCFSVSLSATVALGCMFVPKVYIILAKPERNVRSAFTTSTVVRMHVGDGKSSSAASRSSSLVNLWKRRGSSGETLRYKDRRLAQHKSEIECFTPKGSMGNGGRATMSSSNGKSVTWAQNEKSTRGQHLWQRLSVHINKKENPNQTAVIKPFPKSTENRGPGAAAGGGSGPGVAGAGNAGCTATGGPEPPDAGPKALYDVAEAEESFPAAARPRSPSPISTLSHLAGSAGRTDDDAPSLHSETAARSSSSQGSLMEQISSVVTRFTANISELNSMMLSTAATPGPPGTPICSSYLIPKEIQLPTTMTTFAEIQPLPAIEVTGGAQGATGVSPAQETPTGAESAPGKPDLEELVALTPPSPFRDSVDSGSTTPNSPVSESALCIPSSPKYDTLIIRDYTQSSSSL
# UniProt P21980, whole entry: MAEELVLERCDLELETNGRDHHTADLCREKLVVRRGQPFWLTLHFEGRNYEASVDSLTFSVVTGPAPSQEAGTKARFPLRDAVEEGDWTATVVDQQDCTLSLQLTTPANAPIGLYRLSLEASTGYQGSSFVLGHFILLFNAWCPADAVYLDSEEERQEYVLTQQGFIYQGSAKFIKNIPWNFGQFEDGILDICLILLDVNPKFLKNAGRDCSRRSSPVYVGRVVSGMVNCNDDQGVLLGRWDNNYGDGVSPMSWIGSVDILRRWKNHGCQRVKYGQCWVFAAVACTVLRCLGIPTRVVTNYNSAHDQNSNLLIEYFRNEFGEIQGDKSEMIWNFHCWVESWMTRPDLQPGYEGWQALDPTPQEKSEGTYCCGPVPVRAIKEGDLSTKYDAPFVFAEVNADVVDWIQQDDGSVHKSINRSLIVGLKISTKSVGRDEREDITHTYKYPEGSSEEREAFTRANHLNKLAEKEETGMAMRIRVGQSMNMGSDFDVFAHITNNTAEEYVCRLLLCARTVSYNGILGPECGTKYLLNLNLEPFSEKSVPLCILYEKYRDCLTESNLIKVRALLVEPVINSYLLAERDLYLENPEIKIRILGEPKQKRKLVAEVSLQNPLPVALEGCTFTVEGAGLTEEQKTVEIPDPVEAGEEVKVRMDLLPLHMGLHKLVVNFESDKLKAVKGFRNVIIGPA
# UniProt P42260, 32-908 limits assumed: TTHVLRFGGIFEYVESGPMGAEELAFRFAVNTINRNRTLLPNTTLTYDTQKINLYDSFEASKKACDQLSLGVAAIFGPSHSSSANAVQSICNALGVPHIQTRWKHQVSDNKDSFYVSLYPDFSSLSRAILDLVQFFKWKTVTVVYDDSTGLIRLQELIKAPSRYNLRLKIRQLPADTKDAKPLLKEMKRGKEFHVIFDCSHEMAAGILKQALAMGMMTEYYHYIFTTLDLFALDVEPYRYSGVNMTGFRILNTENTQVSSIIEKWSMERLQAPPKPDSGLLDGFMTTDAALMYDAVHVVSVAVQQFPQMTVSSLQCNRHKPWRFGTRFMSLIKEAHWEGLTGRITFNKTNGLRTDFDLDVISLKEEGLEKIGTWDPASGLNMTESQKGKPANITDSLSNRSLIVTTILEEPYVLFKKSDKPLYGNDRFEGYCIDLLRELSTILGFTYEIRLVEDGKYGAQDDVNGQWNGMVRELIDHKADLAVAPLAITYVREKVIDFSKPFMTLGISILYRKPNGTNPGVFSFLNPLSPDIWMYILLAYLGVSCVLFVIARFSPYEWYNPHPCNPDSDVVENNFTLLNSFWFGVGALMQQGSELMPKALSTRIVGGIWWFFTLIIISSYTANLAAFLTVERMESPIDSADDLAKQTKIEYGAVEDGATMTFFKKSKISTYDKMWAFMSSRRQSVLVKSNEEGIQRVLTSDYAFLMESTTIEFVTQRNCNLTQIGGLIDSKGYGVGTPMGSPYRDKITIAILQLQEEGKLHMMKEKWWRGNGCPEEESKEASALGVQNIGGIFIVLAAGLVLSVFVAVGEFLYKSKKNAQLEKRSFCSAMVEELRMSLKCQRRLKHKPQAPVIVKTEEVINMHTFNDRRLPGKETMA
# UniProt P43220, whole entry, looked up: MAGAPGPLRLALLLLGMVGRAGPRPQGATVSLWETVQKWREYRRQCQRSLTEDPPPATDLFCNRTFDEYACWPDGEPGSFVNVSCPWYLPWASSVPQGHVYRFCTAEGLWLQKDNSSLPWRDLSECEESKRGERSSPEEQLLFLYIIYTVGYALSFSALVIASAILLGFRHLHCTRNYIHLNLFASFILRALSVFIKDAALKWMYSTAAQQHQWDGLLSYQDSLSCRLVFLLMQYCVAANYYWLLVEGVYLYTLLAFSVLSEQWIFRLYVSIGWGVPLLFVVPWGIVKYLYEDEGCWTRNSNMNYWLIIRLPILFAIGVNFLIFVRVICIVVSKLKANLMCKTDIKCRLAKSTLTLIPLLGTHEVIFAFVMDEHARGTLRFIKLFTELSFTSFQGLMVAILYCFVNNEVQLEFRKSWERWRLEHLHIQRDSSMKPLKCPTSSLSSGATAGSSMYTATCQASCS
# UniProt P05067, 672-713 limits assumed: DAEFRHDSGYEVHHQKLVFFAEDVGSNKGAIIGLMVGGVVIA
# “And” joins repeats or separate records; there may be more than shown. Numbers after ± are the reported error.
# E3 ubiquitin-protein ligase NEDD4: E3 ubiquitin-protein ligase NEDD4 (Homo sapiens, UniProt P46934)
# RPA1 N-terminal domain: Replication protein A 70 kDa DNA-binding subunit, N-terminal domain (RPA1, Homo sapiens, UniProt P27694)
# GRM4: Metabotropic glutamate receptor 4 (GRM4, Homo sapiens, UniProt Q14833)
# Grm2: Metabotropic glutamate receptor 2 (Grm2, Rattus norvegicus, UniProt P31421)
# Lysophospholipase-like protein 1: Lysophospholipase-like protein 1 (Mus musculus, UniProt Q3UFF7)
SMILES,tested on,test,test system,setting,scale,measurement,result
CCc1ccc(-c2nc(Nc3nc4ccccc4o3)ncc2C#N)cc1,"Grm5 (Rattus norvegicus, UniProt P31424)","calcium mobilization, negative allosteric modulator",,added: glutamate EC80,baseline: glutamate maximum,maximal response,2.8 ± 0.5%
CCOC(=O)/C=C/CNCCCCCN1c2ccccc2CCc2ccc(Cl)cc21,E3 ubiquitin-protein ligase NEDD4,"inhibitor, Ub-TR-FRET",,"0.4115 µM, 1 h preincubation, HECT domain, added: ATP 2 mM",higher = more ubiquitination,ubiquitination TR-FRET signal AUC,85100 a.u. and 70000 a.u. and 68300 a.u. and 82900 a.u. and 69100 a.u. and 86000 a.u.
Cc1ccc(NS(=O)(=O)c2cc(C(=O)Nc3ccccc3C(=O)O)ccc2C)cc1Cl,RPA1 N-terminal domain,"binding, fluorescence polarisation competition",,added: FITC-ATRIP probe,,ligand efficiency,0.19
Cc1cc(NC(=O)c2cccc(NC(=O)C3=CC(C)(C)CC3=O)c2)ccc1Nc1nccc(-c2cccnc2)n1,"MAPK8 (Homo sapiens, UniProt P45983)","kinase activity, inhibitor",,"44.44 µM, unit not given, added: 10 mM GSH",baseline: DMSO,remaining activity,0.0508
CC(=O)N[C@@H](CC(C)C)C(=O)N[C@H](C(=O)N[C@@H](CO)C(=O)N[C@@H](CCCNC(=N)N)C(=O)Nc1ccc2c(CC(N)=O)cc(=O)oc2c1)C(C)C,"MALT1 (Homo sapiens, UniProt Q9UDY8)","substrate, fluorogenic peptide hydrolysis",,"pH 7.5, catalytic domain 285 or 294 nM",,kcat/Km,11000 M⁻¹ s⁻¹
O=C(Nc1ccc(F)c(F)c1)C12CC1/C(=N\O)c1ccccc1O2 (stereo not shown),GRM4,"positive allosteric modulator, calcium mobilization",CHO expressing Gqi5,"concentration not given, added: glutamate EC20",baseline: glutamate 1 mM,response,110 ± 27.4%
CC(=O)NCCCC[C@H](NC(C)=O)C(=O)Nc1ccc2c(C)cc(=O)oc2c1,"HDAC6 (Homo sapiens, UniProt Q9UBN7)","deacetylation, substrate",,"25 °C, added: 10 to 50 nM enzyme",,kcat/KM,19000 ± 7000 M⁻¹ s⁻¹
COc1cc([C@@H]2c3cc4c(cc3[C@@H](OC3CCCCC3)[C@H]3COC(=O)[C@H]23)OCO4)cc(OC)c1OC,Leishmania infantum,iRFP fluorescence,"mouse splenocytes infected, amastigote, iRFP, ex vivo splenic explant",48 h,,EC50,> 100 µM
C[C@H](NC(=O)[C@H](CCCCN)NC(=O)CNC(=O)CNC(=O)[C@@H](NC(=O)[C@@H](NC(=O)[C@H](Cc1c[nH]c2ccccc12)NC(=O)c1ccccc1N)[C@@H](C)O)[C@@H](C)O)C(=O)N[C@@H](CCCCNc1ccc([N+](=O)[O-])cc1[N+](=O)[O-])C(N)=O,"Mitochondrial intermediate peptidase (MIPEP, Homo sapiens, UniProt Q99797)","substrate, FRET peptide hydrolysis",,,,kcat/Km,530 M⁻¹ s⁻¹
CC(=O)N1CCC[C@H]1C(=O)N[C@@H](CCC(N)=O)C(=O)N[C@@H](CC(C)C)C(=O)N1CCC[C@H]1C(=O)N[C@@H](Cc1ccccc1)C(N)=O,"TGM2 (Homo sapiens, UniProt P21980)","enzyme activity, activator, GLDH-coupled deamidation",,"noncompetitive model, added: Ca2+",,apparent Ka,~1 mM
NC(=O)c1cn(-c2ccc(F)cc2)c2ccc(COc3ccc(Cl)nc3)cc2c1=O,Grm2,"calcium mobilization, negative allosteric modulator",,"30 µM, added: glutamate 100 µM",baseline: glutamate maximum,response,1.7 ± 0.12%
O=C(O)CC[C@H](NC(=O)c1cc(C(=O)O)cc([C@H]2CCN[C@@H]2C(=O)O)c1)C(=O)O,"Grik2 (Rattus norvegicus, UniProt P42260)",radioligand binding,Sf9 membranes,"10 µM, homomeric receptor, added: [3H]kainate",,specific binding,100 ± 14%
O=C(Nc1ccc(F)cc1)C12CC1/C(=N\O)c1ccccc1O2 (stereo not shown),GRM4,"positive allosteric modulator, calcium mobilization",CHO expressing Gqi5,"30 µM, added: glutamate concentration-response","baseline: glutamate alone, leftward shift",fold shift of glutamate EC50,4.1 ± 0.5 fold
CCCCN(CCc1ccc(Cl)c(Cl)c1)C[C@H](O)COc1ccc(NS(C)(=O)=O)cc1,"Glutamate NMDA receptor; Grin1/Grin2b (Grin1/Grin2b, Rattus norvegicus, UniProt P35439+Q00960)",whole-cell voltage clamp,HEK cells,,baseline: pH 6.9 over pH 7.6,potency ratio,9 fold
Cc1[nH]c2cc(Cl)cc(Cl)c2c1CCn1cc(COCCOCCO)nn1,"GLP1R (Homo sapiens, UniProt P43220)","cAMP accumulation, positive allosteric modulator, HTRF",,"0.6 µM, purified compound, added: GLP-1(9-36) at EC20",baseline: BETP,Emax,101 ± 5%
CCOC(=O)/C=C/CNCCN1c2ccccc2CCc2ccc(Cl)cc21,E3 ubiquitin-protein ligase NEDD4,"inhibitor, Ub-TR-FRET",,"11.11 µM, 1 h preincubation, HECT domain, added: ATP 2 mM",higher = more ubiquitination,ubiquitination TR-FRET signal AUC,175000 a.u. and 174000 a.u. and 176000 a.u.
COc1cccc(Nc2ncnc3onc(-c4ccc(Cl)cc4)c23)c1,"CFTR (Homo sapiens, UniProt P13569, del508-508)",,FRT expressing ΔF508-CFTR,,baseline: DMSO,iodide influx rate,100 µM/s
CN(C)C(=O)CCC(C(=O)/C=C/c1ccc(O)c(OC(F)(F)F)c1)C(=O)/C=C/c1ccc(O)c(OC(F)(F)F)c1,"APP (Homo sapiens, UniProt P05067)","SDS-PAGE western blot, refers to: Aβ1-42 species 75-200 kDa",,"30 µM, 24 h, 37 °C, added: Aβ 10 µM",baseline: DMSO control,Aβ band density,570 ± 231%
CSc1ccccc1Nc1c(C(=O)O)ccnc1C(=O)O,"Egl nine homolog 1 (EGLN1, Homo sapiens, UniProt Q9GZT9)","inhibitor, HTRF",,400 µM,,remaining activity,100%
COc1ccc(NC(=O)CN2CCCN(S(=O)(=O)c3cnc(NC(C)=O)s3)CC2)c(OC)c1,GRM4,"calcium mobilization, positive allosteric modulator",CHO cells with Gqi5,added: glutamate,baseline: PHCCC maximal response,maximal response,46.4 ± 5.5%
CCOc1ccccc1Nc1nnc(SCC(=O)Nc2cc(F)ccc2F)s1,"CD28, with CD80 (Homo sapiens, UniProt P10747)",NanoBiT complementation,CHO-K1,100 µM,,onset of luminescence reduction,30 min
Nc1nc(SCc2ccc(Cl)cc2)nn1S(=O)(=O)c1ccoc1,Lysophospholipase-like protein 1,"activator, gel-based ABPP FP-rhodamine",,,baseline: DMSO,probe labelling,2.4 fold
Cc1ccc(C(=O)Nc2ccc(Br)cc2C(=O)O)cc1S(=O)(=O)Nc1cccc(Cl)c1,RPA1 N-terminal domain,"binding, fluorescence polarisation competition",,added: FITC-ATRIP probe,,ligand efficiency,0.22
COc1ccc2c(c1)S(=O)(=O)N(CCCCCc1ccccc1)C(=O)O2,"Palmitoyl-protein thioesterase ABHD10, mitochondrial (Homo sapiens, UniProt Q9NUJ1)","covalent adduct, ESI-MS",,"30 min, 25 °C, added: five-fold inhibitor excess",,protein mass increase,376 Da
CCOC(=O)/C=C/CNCCCN1c2ccccc2CCc2ccccc21,E3 ubiquitin-protein ligase NEDD4,"inhibitor, Ub-TR-FRET",,"33.33 µM, 1 h preincubation, HECT domain, added: ATP 2 mM",higher = more ubiquitination,ubiquitination TR-FRET signal AUC,55400 a.u. and 44300 a.u. and 44000 a.u.
O=C(OC(C(F)(F)F)C(F)(F)F)N1CCc2c(Br)cccc2C1,"FAAH (Homo sapiens, UniProt O00519)","enzyme activity, inhibitor, fluorescence AAMCA substrate",,1 µM,,activity,inactive
Nc1nc(SCc2ccc(Cl)cc2)nn1S(=O)(=O)c1ccc(C(F)(F)F)nc1,Lysophospholipase-like protein 1,"activator, gel-based ABPP FP-rhodamine",,,baseline: DMSO,probe labelling,1.3 fold
Nc1nc2ccccn2c1C(=O)c1ccc2c(c1)CN(C1CCC(=O)NC1=O)C2=O (stereo not shown),"WEE1/CRBN (Homo sapiens, UniProt P30291+Q96SW2)","degrader, HiBiT",Jurkat,5 h,,Dmax,61%
NC(=O)c1cn(-c2ccc(F)cc2)c2ccc(CN3CCN(CC(F)(F)F)CC3)cc2c1=O,Grm2,"calcium mobilization, negative allosteric modulator",,"30 µM, added: glutamate 100 µM",baseline: glutamate maximum,response,1.1 ± 0.07%
Nc1nc(SCc2ccc(Cl)cc2)nn1S(=O)(=O)c1cccc2c1CCCC2,Lysophospholipase-like protein 1,"activator, gel-based ABPP FP-rhodamine",,,baseline: DMSO,probe labelling,2.5 fold
C/C=C/Cn1c(Cc2cc(OC)c(OC)c(OC)c2)nc2c(N)ncnc21,"Heat shock protein HSP 90-alpha, N-terminal domain (HSP90AA1, Homo sapiens, UniProt P07900)",isothermal titration calorimetry,,"298 K, N-terminal domain",,ΔG,-7.77 ± 0.06 kcal/mol
Cc1cc(NC(=O)c2cccc(NC(=O)C3=CC(C)(C)CCC3=O)c2)ccc1Nc1nccc(-c2cccnc2)n1,"MAPK8 (Homo sapiens, UniProt P45983, C116S)",surface plasmon resonance,,"100, 300, 1000 nM, 1:1 binding model",,kon,190000 M⁻¹ s⁻¹
Nc1nc(SCc2ccc(Cl)c(Cl)c2)nn1S(=O)(=O)c1ccc2c(c1)CCO2,Lysophospholipase-like protein 1,"activator, gel-based ABPP FP-rhodamine",,,baseline: DMSO,probe labelling,2.2 fold
COc1cc(C(=O)N2CCC(N3CCN(C)CC3)CC2)ccc1Nc1ncc2c(n1)N(C1CCCC1)c1ccccc1C(=O)N2C,"Bromodomain-containing protein 4, BD1 (BRD4, Homo sapiens, UniProt O60885)",differential scanning fluorimetry,,"10 µM, protein 2 µM",,ΔTm,4.1 ± 0.24 °C
CCOC(=O)/C=C/CNCCCCN1c2ccccc2CCc2ccc(Cl)cc21,E3 ubiquitin-protein ligase NEDD4,"inhibitor, Ub-TR-FRET",,"0.01524 µM, 1 h preincubation, HECT domain, added: ATP 2 mM",higher = more ubiquitination,ubiquitination TR-FRET signal AUC,97000 a.u. and 92600 a.u. and 91700 a.u. and 94400 a.u. and 96600 a.u. and 95100 a.u.
COc1ccc(NC(=O)CN2CCCN(S(=O)(=O)c3ccccc3Cl)CC2)c(OC)c1,GRM4,"calcium mobilization, positive allosteric modulator",CHO cells with Gqi5,added: glutamate,baseline: PHCCC maximal response,maximal response,25.8%
Nc1nc2c(ncn2COCCNC(=O)c2cc3cc(Br)ccc3c(Br)c2O)c(=O)[nH]1,"SAMHD1 (Homo sapiens, UniProt Q9Y3Z3)",differential scanning fluorimetry,,"50 µM, 3 µM apo protein",,delta Tm,0.8 °C

# Repeated from above:
SMILES,tested on,test,test system,setting,scale,measurement,result
NC(=O)c1cn(-c2ccc(F)cc2)c2ccc(COc3ccc(Cl)nc3)cc2c1=O,Grm2,"calcium mobilization, negative allosteric modulator",,"30 µM, added: glutamate 100 µM",baseline: glutamate maximum,response,1.7 ± 0.12%
O=C(O)CC[C@H](NC(=O)c1cc(C(=O)O)cc([C@H]2CCN[C@@H]2C(=O)O)c1)C(=O)O,"Grik2 (Rattus norvegicus, UniProt P42260)",radioligand binding,Sf9 membranes,"10 µM, homomeric receptor, added: [3H]kainate",,specific binding,100 ± 14%
O=C(Nc1ccc(F)cc1)C12CC1/C(=N\O)c1ccccc1O2 (stereo not shown),GRM4,"positive allosteric modulator, calcium mobilization",CHO expressing Gqi5,"30 µM, added: glutamate concentration-response","baseline: glutamate alone, leftward shift",fold shift of glutamate EC50,4.1 ± 0.5 fold
CCCCN(CCc1ccc(Cl)c(Cl)c1)C[C@H](O)COc1ccc(NS(C)(=O)=O)cc1,"Glutamate NMDA receptor; Grin1/Grin2b (Grin1/Grin2b, Rattus norvegicus, UniProt P35439+Q00960)",whole-cell voltage clamp,HEK cells,,baseline: pH 6.9 over pH 7.6,potency ratio,9 fold
